Experimental data gathered from unrelated publications.
Lines come from different studies, so protocols differ. Numbers after ± are the reported error.
Cell line: MV4-11

| SMILES | read-out | method | time | with | direction | endpoint | value |
| --- | --- | --- | --- | --- | --- | --- | --- |
| CNC(=O)c1cc(OC)cc2c(N3CCc4c(cc(Cn5ccnc5)cc4-c4cn(C)nc4C(F)(F)F)C3=O)ccnc12 | cell growth or viability | ATP luminescence | 5 days |  |  | GI50 | 23 nM |
| COc1ccc(C[C@H]2COC(=O)[C@@H]2Cc2ccc(OCCCCCC(=O)NO)c(OC)c2)cc1OC | cell growth or viability | CCK-8 | 48 h |  |  | IC50 | 850 nM |
| C[C@@H]1CN(c2ccc(-c3cc(C(=O)NCCOCCOCCOCCOCCOCCOCCOCCOCCOCCNC(=O)/C=C/c4[nH]cc(C(=O)N[C@@H](CC(N)=O)c5ccc(F)c(Cl)c5)c4-c4ccc(Cl)cc4F)ccc3F)cc2NC(=O)c2c[nH]c(=O)cc2C(F)(F)F)C[C@H](C)N1C | cell growth or viability | ATP luminescence | 5 days |  |  | EC50 | 158 nM |
| COc1ccc(C[C@H]2COC(=O)[C@@H]2Cc2ccc(OCc3cn(CC(=O)Nc4ccccc4N)nn3)c(OC)c2)cc1OC | cell growth or viability | CCK-8 | 48 h |  |  | IC50 | > 5000 nM |
| CC[C@@]1(O)C[C@H](O[C@H]2C[C@H](N(C)C)[C@H](O[C@H]3C[C@H](O)[C@H](O[C@H]4CCC(=O)[C@H](C)O4)[C@H](C)O3)[C@H](C)O2)c2c(cc3c(c2O)C(=O)c2c(O)cccc2C3=O)[C@H]1C(=O)OC |  |  | 72 h | cytotoxic drug | below 1 means synergy | combination index | 0.91 ± 0.06 |
| CCCNNC(=O)c1ccc(CNC(=O)/C=C/c2ccccc2)cc1 | cell growth or viability | resazurin | 48 h |  |  | EC50 | < 50 nM |
| COc1ccc(C[C@H]2COC(=O)[C@@H]2Cc2ccc(OCCCCC(=O)NO)c(OC)c2)cc1OC | cell growth or viability | CCK-8 | 48 h |  |  | IC50 | > 5000 nM |
| COc1cc(C(=O)N(C)C)c2nccc(N3CCc4c(cc(Cn5ccnc5)cc4-c4cn(C)nc4C(F)(F)F)C3=O)c2c1 | cell growth or viability | ATP luminescence | 5 days |  |  | GI50 | 420 nM |
| Nc1ccn([C@@H]2O[C@H](CO)[C@@H](O)[C@@H]2O)c(=O)n1 |  |  | 72 h | cytotoxic drug | below 1 means synergy | combination index | 0.81 ± 0.04 |
| CCc1cc(C(=O)NC)c2nccc(N3CCc4c(cc(Cn5ccnc5)cc4-c4cn(C)nc4C(F)(F)F)C3=O)c2c1 | cell growth or viability | ATP luminescence | 5 days |  |  | GI50 | < 10 nM |
| Cc1ncsc1-c1ccc(CNC(=O)[C@@H]2C[C@H](O)CN2C(=O)[C@@H](NC(=O)C2(F)CC2)C(C)(C)C)c(OCCOc2ccc(CN3CCN(c4cc(-c5ccccc5O)nnc4N)CC3)cc2)c1 | cell growth or viability | ATP luminescence | 7 days |  |  | IC50 | 1400 nM |
| COc1ccc(C[C@H]2COC(=O)[C@@H]2Cc2ccc(OCC(=O)N3CCC(C(=O)NO)CC3)c(OC)c2)cc1OC | cell growth or viability | CCK-8 | 48 h |  |  | IC50 | > 5000 nM |
| CCn1cc(-c2cc(Cn3ccnc3C)cc3c2CCN([C@H](c2cc(OC)ccn2)C2CC2)C3=O)c(C(F)(F)F)n1 | cell growth or viability | ATP luminescence | 5 days |  |  | GI50 | 15 nM |

Excerpt of the above:
| SMILES | read-out | method | time | with | direction | endpoint | value |
| --- | --- | --- | --- | --- | --- | --- | --- |
| COc1ccc(C[C@H]2COC(=O)[C@@H]2Cc2ccc(OCCCCC(=O)NO)c(OC)c2)cc1OC | cell growth or viability | CCK-8 | 48 h |  |  | IC50 | > 5000 nM |
